Experimental data of several laboratories.
A part holds a random share of what one study measured.

Series 1
Target: Ras GTPase-activating protein-binding protein 1, full length (G3BP1, Homo sapiens, UniProt Q13283)
Chain of UniProt Q13283 (whole entry, looked up): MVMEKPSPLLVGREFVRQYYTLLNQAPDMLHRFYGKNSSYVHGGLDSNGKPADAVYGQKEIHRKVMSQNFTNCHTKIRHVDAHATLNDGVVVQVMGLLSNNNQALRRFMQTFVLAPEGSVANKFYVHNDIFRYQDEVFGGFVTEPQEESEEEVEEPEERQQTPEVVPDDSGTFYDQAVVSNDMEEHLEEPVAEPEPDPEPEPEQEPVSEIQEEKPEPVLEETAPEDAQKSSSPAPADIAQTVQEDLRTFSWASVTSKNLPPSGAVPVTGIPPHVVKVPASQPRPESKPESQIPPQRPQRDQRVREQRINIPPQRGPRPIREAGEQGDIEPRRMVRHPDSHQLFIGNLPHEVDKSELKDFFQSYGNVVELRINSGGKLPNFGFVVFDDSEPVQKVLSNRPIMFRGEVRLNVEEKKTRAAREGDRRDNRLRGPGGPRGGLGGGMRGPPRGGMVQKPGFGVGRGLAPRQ
Method: RNA Bind-n-Seq
Form: RNA
Sample: in vitro
Tested at: 200 nM
Notes: whole 134-nt RNA, ends assumed
With: 150 mM LiCl
Reference: input library
Reading: higher = stronger binding
All molecules: 7-deaza-guanosine replaces G
Oligonucleotide	log2 enrichment
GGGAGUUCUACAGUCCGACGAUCCACAGACAACACGCACCCAGACAGACACAGAGGGAAGGGGUUGGGAUGGGGACAGGGUGCACAGCAGGGCGGGGUAGGACCCCAGCCCCUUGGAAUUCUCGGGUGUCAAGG	0.2
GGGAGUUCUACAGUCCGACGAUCUAACUUUAGAGGAGGAUCUGAUGGAUAUGGCAGUGGACGUGGAUUUGGGGAUGGCUAUAAUAGGUAUGGAGGAGGACCUGGAGGUGGCAAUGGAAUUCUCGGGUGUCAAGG	-0.208
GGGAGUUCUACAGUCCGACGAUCGUCCUGUGCUACACAUCGUAUGUACCGAAUCGGGGUUUGGGGUUUUUUUGGGGUGGGGAAAGUAUUAUGUUACGCCGUUCGGAUCUGCACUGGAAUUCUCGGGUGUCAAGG	-0.19
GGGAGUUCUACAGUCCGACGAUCUUGUUCUGGCAUAAACAUAACAUUGAGAAGUCCCUUGCUGAUCUCCCUAAUUUCACUCCCUUUCCGGAUGAGUGGACAGUGGAAGAUAAAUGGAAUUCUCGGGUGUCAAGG	-0.176
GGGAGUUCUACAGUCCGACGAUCUUCCCCACUUCCUUCCCUCCAGUCCCCACUCACUCACAUGCACACACUAACCUUGGAGCCGAUGGGAUUGAGUGACUGGCACUUGGGACCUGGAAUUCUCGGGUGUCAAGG	0.765
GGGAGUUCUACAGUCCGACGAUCCAAGUCCUGUGCUACACAUCGUAUGUACCGAAUCGGAAAAAAAGGUUUUUGGUGGAAAGUAUUAUGUUACGCCGUUCGGAUCUGCACUUCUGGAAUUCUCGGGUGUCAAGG	-1.33
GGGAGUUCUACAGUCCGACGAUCAGUCCUGUGCUACACAUCGUAUGUACCGAAUCGGAAAAGGGGAAAAGGGAAAAGGGGAAAGUAUUAUGUUACGCCGUUCGGAUCUGCACUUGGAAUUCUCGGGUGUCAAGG	-0.464
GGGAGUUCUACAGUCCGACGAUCAGUCCUGUGCUACACAUCGUAUGUACCGAAUCGGGGAAAAGGGAAAAGGGAAAAGGGAAAGUAUUAUGUUACGCCGUUCGGAUCUGCACUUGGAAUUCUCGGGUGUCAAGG	-0.7
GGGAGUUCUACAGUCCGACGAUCCCUCAAGUCCUGUGCUACACAUCGUAUGUACCGAAUCGGGUGGGGUGGUGGGAAAGUAUUAUGUUACGCCGUUCGGAUCUGCACUUCCAGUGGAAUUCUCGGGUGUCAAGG	0.153
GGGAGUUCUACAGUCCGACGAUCUGGCCCUGGUGGCAUGCGGGGAGGAAGAGGUGGCCUCAUGGAUCGUGGUGGUCCCGGUGGAAUGUGCAGAGGUGGCCGUGGUGGAGACAGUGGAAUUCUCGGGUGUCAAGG	-0.0606
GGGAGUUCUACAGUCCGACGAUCUUUUUGAAUCAAUUUUUAAAACAUGCCAUUGUGUUUCAGGCUCGCGGGAUUGAUGUGCAACAAGUGUCUUUGGUUAUAAAUUAUGAUCUAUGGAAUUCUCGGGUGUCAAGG	-0.915

Series 2
Target: RNA binding protein fox-1 homolog 2, RRM domain, GST-SBP tag (RBFOX2, Homo sapiens, UniProt O43251-10, residues 100-194)
Method: RNA Bind-n-Seq
Form: RNA
Sample: in vitro
Tested at: 365 nM
Notes: natural RNA segment, single round, ends assumed
Reference: no-protein control
Reading: higher = stronger binding
Construct (chain): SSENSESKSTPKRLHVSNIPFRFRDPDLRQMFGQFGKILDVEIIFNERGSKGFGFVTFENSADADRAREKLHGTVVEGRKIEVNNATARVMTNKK
Oligonucleotide	RBNS enrichment (R)
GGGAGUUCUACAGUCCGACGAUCUGUUUUCAGUUUUCAUUUCGACAAGCACUGUAAUUAUAGCUGUUAGAAUAAAGUCUCUUAACUAUUUAUGGGCUUGUGUGUCAGUGCCACCACUGCCAGGCUUCUUCCUGUGGAAUUCUCGGGUGCCAA	0.364
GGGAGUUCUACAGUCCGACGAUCAUGUUAACUUUCAGUGUCACCAUCUUACAGCUUAGGGGCAUUUGCAUUCCCCUGACAAAGGUAUCAUGUGUACAGCUCAGUAGUGUGCCCUGUCCUUCUCAUGGACUCCAUGGAAUUCUCGGGUGCCAA	0.23
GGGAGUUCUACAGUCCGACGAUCCCACCCCUGCCUCUGGGCACCCACCACUCACGGAUGGCAGAACCCAUUCAGUCUCCUACCUUGCAUUCAGGAUGCACAGUUCUCUAAGUCCUGGCCAGCCCCAGCUCAUCUGGAAUUCUCGGGUGCCAA	0.775
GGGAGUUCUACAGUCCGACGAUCUCUAGUCUAAGUAAGAAUGUCUUUUGCCUGCGCGUGGAGGCACAGUAGAAAUCUCAAGGCUUUACCCAGAAGAGCCCAGUCAGGGAGAGGUGUAAAUGCAAAAUUGCCAAUGGAAUUCUCGGGUGCCAA	4.63
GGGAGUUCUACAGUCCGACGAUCAGCUACAGAGUGUGAUCCUGUCAAAAUCCCCUGAGAAAUAUUCUUAGGGGCUCACAACCAAGGUCCGGAGGCAACACAUAGUGGGAGCUCUUCCCCAGCACAGGGCAGACUGGAAUUCUCGGGUGCCAA	0.423
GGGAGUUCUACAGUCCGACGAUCAAAACAAAAGCUAAAAUAAAAGCAUCAGAUUUAGACUGGCGCUGUGCCCUCUACCACUAUAUGCCAAAAAUUGCUUCUCUAGUGCCAUUUUGAUAUUAUAUCUAGCUAUAUGGAAUUCUCGGGUGCCAA	0.456
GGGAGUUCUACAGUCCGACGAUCAAAGGGUGUACUUAUAUCCACACUGCACACUGCCUGGCCCAAAACGUCUUAUUGUGGUAGGAUCAGCCCUCAUUUUGUUGCUUUUGUGAACUUUUUGUAGGGGACGAGAAUGGAAUUCUCGGGUGCCAA	0.732
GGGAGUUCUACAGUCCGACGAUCCAAUCUCUGUAUUAUAGCUAUUUGUCUAACAUUACCCCACAUGUAAUAAAUAAAACAAUAUGAGCAUAAUUGCCCCAUAAAGAACUCAUGUCCUGAAUUAAUAAGUCUUUUGGAAUUCUCGGGUGCCAA	0.458
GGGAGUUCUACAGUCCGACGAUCCUGAAACAGCUGAGAGCCUAUUAGAGACCUGCUGCAAUGGCUGUCAGCCUUGGGAAAGGGGGACUCUUAGCUCUGUUGGUAUCACCGGGCCAUCUGGAAUGCAAGGUGAGUGGAAUUCUCGGGUGCCAA	1.81
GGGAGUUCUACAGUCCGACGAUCUUAGCAAUUGUUUGUUAAUGUCCUUGGCAAACGUGUACCUGCUUUCCUUCAUUGUUCUCUUCAGGGGCUUUCUUCCACUUUCCUCUUAUGAAACGAAUGUGUUUUUGACUUGGAAUUCUCGGGUGCCAA	0.39
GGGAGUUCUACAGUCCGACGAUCGCCUGGGUCUGUCUGAGGAAGGAGGGGGUCCCGCCUUCCACCUCAACACAUCCCUUCAGUGACUCAGAGUCUCAGAAGGAAACCCUGACUCCUGGGGCCAUUUCCUAAUGUGGAAUUCUCGGGUGCCAA	0.212
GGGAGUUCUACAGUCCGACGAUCAAAACUGUGACCAGUUCAAAUUAUGACUCAGAACGUAGGGCCAGCACCAGCUACCUCUGCAGACUCCCAGUGACUCUCUCUUCACAAGCAGAUGAAGGGAAGGCUCAGAAUGGAAUUCUCGGGUGCCAA	0.389

Series 3
Target: Sal-like protein 4, full length isoform B (SALL4, Homo sapiens, UniProt Q9UJQ4-2, residues 1-616)
Method: universal PBM
Form: double-stranded DNA, one strand shown
Sample: in vitro
Tested at: not given
Notes: 8-mer, flanks averaged, mean of replicates
Reading: higher = stronger binding
Construct (chain): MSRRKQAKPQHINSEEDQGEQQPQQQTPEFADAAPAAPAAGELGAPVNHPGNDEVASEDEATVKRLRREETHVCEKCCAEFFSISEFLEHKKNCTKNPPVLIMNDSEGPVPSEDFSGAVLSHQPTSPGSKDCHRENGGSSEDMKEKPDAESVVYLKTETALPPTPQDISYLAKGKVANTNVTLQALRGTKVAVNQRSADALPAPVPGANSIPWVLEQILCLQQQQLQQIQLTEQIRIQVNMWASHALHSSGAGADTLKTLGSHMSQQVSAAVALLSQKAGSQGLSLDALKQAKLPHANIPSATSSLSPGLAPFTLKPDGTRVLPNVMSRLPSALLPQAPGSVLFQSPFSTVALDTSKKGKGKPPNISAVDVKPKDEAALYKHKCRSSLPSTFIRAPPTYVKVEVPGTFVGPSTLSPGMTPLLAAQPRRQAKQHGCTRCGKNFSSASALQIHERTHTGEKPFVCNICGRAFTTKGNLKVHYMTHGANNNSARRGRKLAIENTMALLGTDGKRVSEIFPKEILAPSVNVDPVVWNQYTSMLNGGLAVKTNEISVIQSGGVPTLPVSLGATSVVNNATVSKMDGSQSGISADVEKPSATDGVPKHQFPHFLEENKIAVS
Oligonucleotide	E-score
CATGCATC	-0.0678
GGATTTGA	0.0181
CTAGTCGC	-0.201
CTCGAGAC	-0.0129
CCCGGGTA	-0.313
GACTCTAC	-0.179
GACCCGCA	-0.165
CCCCTTCA	-0.137
ACGTGCAG	-0.0624
TCGGATAA	0.131
GGCCTAGA	-0.209
AAGCGCTG	-0.102
GCTACTCA	0.00181
AGTCACTC	-0.0812
TAGCGCGA	-0.159
CCAGCCTA	-0.31

Series 4
Target: PABPC1L2, full length, GST fusion (mouse, UniProt A0ABA7IW68)
Method: RNAcompete
Form: RNA
Sample: in vitro
Tested at: 20 nM
Notes: 7-mer, probes averaged, single round
Reference: mean of 7-mers
Reading: higher = stronger binding
Residues (chain): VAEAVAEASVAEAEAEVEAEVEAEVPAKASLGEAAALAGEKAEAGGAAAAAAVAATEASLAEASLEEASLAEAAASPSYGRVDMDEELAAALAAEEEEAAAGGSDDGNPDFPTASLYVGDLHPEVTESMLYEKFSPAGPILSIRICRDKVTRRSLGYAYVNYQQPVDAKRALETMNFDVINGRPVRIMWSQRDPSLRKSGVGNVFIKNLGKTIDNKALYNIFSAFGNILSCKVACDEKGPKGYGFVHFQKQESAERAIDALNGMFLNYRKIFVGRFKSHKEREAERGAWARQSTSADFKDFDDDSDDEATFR
Oligonucleotide	7-mer Z-score
GAUUUUC	-0.387
AGGCCUU	-0.289
AACAAGC	0.432
UCGCAUA	-0.302
GUACUCC	-0.222
GCGAACU	-0.141
GCUGGAA	0.271
CUAACCA	-0.0536
CUUUACC	-0.267
CAAUCUC	-0.0917
AGUGCGC	-0.133
AGCAAUG	-0.0174
AUGGUGA	0.0134
